Published values pooled from the literature.
Numbered parts are unrelated; each lists some results of a single study. Substitutions count along the parent as printed.

Study 1
Target: Interferon regulatory factor 5, full length, phosphomimetic (IRF5, Homo sapiens, UniProt Q13568-2, residues 1-514, S451D/S453D/S456D/S462D)
Technique: protein-binding microarray
Molecule type: double-stranded DNA, one strand shown
Medium: in vitro
Tested at: 940 nM top
Notes: 60-bp whole probe
With: salmon DNA 0.4 mg/ml
Baseline: random background probes
Reading: higher = stronger binding
Quantity: fitted relative affinity
All sequences stand within: GCCTAGCAC … GTCTTGATTCGCTTGACGCTGCTG
TCATGGCTCCCTATAAAACTGTGCTAG: -0.0353 z-score
AACGGTTTCCTTTCCCTGACGTGCTAG: 1.91 z-score
TCCATTTTCTAAATGCCCTAGTGCTAG: 0.404 z-score
TCACCTCTCTTTCCAACACTGTGCTAG: 1.81 z-score
TCAGGTCTCCCTTGAGGTTTGTGCTAG: -0.255 z-score
TTAGGACTGCTTATCATTTAGTGCTAG: -0.0321 z-score
ATAGAACTGGGGTTTCGATTAGTGCTA: 5.09 z-score
TTAGGTCTCCCACTGCTTTAGTGCTAG: -0.189 z-score
AAAGTCTTCACTCTGCTGAAGTGCTAG: 0.137 z-score
TTATAACTGGGGACTGGATTAGTGCTA: 0.301 z-score
GACGGACTGCTTATTCTGACGTGCTAG: -0.462 z-score
TTCGGACTGGGGTTTCGGTTAGTGCTA: 5.5 z-score
GACGGACTGGGGCATCGGGACGTGCTA: -0.786 z-score
TCAGATTTCGGGTTTCGATTAGTGCTA: 6.05 z-score
CTAGTAGCCTAAGGCTACCGGTGCTAG: -0.671 z-score
CAGCCTTTGCCTCATCTTGCAGTGCTA: 0.351 z-score
GACGATATCAGTATCAAGACGTGCTAG: 0.118 z-score
TGAGGTATCGACTTTCGGTTAGTGCTA: 4.77 z-score
GACGGTTGCGGTCTCGGGACGTGCTAG: 1.68 z-score

Study 2
Target: Histone acetyltransferase KAT6A, both winged helices, GST fusion (KAT6A, Homo sapiens, UniProt Q92794, residues 1-181)
Technique: protein binding microarray
Molecule type: double-stranded DNA, one strand shown
Medium: in vitro
Tested at: not given
Notes: 8-mer, flanks averaged, mean of 2 arrays, mostly near background
Baseline: not given
Reading: higher = stronger binding
Quantity: E-score
Target sequence (chain): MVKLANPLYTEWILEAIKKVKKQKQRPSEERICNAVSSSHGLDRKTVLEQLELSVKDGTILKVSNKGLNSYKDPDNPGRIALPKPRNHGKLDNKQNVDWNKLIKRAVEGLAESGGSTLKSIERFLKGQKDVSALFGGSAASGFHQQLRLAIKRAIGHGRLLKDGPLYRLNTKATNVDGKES
AGCACGCT: -0.0184
TGTAAGAA: -0.0516
GTCCCGTA: 0.252
AGCCGTCC: 0.172
CGCTTCCG: 0.349
ATAAAGAG: 0.00046
AGCGAAAA: -0.0448
AAACTGTC: -0.0868
GTAAATAA: -0.108
CCCCATTA: -0.194
GCGATTGA: 0.0477
CCAAACCG: 0.0394
GTTAAACA: 0.0137
GCTCACGA: -0.00545
AAGACCCG: 0.0753
AAAGGTCG: -0.11
GAAGCACA: -0.181
ATCACTGA: -0.135

Study 3
Target: CCNB3, cyclin fold, Cln2 fusion (human)
Technique: yeast growth competition, sequencing
Medium: yeast
Notes: weak parent motif
Baseline: not given
Reading: higher = stronger binding
Quantity: normalised enrichment score
Starting sequence: CDKN1A docking peptide (human); SKACRRLFGPVDS; partner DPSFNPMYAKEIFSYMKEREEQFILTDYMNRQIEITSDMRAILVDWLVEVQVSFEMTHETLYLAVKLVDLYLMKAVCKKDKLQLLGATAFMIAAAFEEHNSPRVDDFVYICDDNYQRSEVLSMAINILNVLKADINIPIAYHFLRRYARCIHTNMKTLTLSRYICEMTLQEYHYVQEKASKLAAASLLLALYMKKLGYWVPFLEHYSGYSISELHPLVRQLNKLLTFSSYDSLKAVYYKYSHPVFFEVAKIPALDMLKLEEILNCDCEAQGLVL
F8S: 0.133
K2Q: 0.359
D12Q: 0.0767
C4H: 0.535
K2I: 0.437
K2L: 0.373
K2V: 0.714
F8C: 0.0222
A3H: 0.4
C4M: 0.206
V11M: 0.258
R5W: 0.345
F8V: 0.0923
P10C: 0.333
R5G: 0.274
L7G: -0.196

Further values, each from its own experiment
PhoQ, residues 284 288 289 292 302 303 ASTSDA  fold induction (PhoP, residues 12 14 15 18 19 LHHVQ (Escherichia coli, UniProt P23836); Sort-seq, item: YFP reporter; E. coli; PhoQ-PhoP variant library, with: 10 µM Mg2+; baseline: high Mg2+ state, higher = stronger signaling): 20

Excerpt of the above (study 1):
AAAGTCTTCACTCTGCTGAAGTGCTAG: 0.137 z-score
TTATAACTGGGGACTGGATTAGTGCTA: 0.301 z-score
GACGGACTGCTTATTCTGACGTGCTAG: -0.462 z-score
TTCGGACTGGGGTTTCGGTTAGTGCTA: 5.5 z-score
GACGGACTGGGGCATCGGGACGTGCTA: -0.786 z-score
